Measured values from different studies.
Each numbered part is a random draw from the data of one study; scales do not carry over between parts. Positions count from the first letter of the parent shown.

Set 1
Target: Sal-like protein 4, full length isoform A (SALL4, Homo sapiens, UniProt Q9UJQ4, residues 1-1053)
Sequence of UniProt Q9UJQ4 (whole entry, looked up): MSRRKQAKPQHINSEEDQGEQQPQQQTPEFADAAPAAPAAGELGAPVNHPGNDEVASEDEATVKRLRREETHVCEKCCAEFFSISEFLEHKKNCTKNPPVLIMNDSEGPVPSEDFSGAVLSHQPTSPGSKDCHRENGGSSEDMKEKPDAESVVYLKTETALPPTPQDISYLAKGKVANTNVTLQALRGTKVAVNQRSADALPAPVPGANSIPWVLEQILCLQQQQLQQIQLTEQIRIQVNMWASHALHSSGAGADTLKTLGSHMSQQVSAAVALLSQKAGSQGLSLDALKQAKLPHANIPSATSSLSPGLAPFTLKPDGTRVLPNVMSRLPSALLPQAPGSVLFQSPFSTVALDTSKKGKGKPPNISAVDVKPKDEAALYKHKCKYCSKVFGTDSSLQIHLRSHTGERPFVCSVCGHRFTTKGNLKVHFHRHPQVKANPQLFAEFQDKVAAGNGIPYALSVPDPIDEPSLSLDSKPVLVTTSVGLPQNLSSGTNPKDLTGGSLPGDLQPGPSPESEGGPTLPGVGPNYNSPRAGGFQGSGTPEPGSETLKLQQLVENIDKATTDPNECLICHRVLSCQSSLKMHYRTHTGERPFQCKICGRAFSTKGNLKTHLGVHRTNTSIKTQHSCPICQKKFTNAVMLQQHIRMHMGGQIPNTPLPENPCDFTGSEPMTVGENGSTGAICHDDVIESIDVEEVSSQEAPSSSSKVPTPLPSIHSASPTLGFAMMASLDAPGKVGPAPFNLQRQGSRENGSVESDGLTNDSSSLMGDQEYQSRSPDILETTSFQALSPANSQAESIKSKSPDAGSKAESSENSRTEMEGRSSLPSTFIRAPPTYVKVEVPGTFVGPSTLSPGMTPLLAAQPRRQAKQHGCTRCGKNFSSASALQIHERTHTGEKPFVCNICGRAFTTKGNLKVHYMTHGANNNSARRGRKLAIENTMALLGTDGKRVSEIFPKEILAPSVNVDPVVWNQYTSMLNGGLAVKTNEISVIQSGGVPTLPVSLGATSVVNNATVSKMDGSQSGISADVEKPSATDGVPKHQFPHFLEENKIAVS
Method: universal PBM
Molecule type: double-stranded DNA, one strand shown
Medium: in vitro
Tested at: 600 nM
Notes: 8-mer, flanks averaged, mean of replicates
Reading: higher = stronger binding
Quantity: E-score
CAGAGCTA: -0.182
AGCGTCGG: -0.177
AAGGGGCT: -0.0938
ACCTGTGC: -0.0183
CCAAGTAA: 0.124
TGGCCGAA: -0.105
CGTTTGAA: 0.119
AAGCGGCA: -0.137

Set 2
Target: Prothrombin, mature alpha-thrombin (F2, Homo sapiens, UniProt P00734)
Method: aptamer microarray, sandwich
Molecule type: DNA with 2'F-ANA
Medium: in vitro
Tested at: 200 nM
Notes: whole 15-mer aptamer, many near background
With: Cy3 exosite-II aptamer, 400 nM
Reading: higher = stronger binding
Quantity: mean fluorescence intensity
Oligonucleotide: GGTTGGTGTGGTTGG
2'F-ANA at 1 2 3 4 6 7 8 9 10 11 13 14: 53.4 a.u.
2'F-ANA at 3 5 6 9 10 13 14 15: 53.8 a.u.
2'F-ANA at 2 3 6 9 10 11 12 13 14 15: 213 a.u.
2'F-ANA at 1 5 6 8 11 12 13: 76.3 a.u.
2'F-ANA at 1 2 7 8 9 12 13 14 15: 96.6 a.u.
2'F-ANA at 3 4 5 8 9: 116 a.u.
2'F-ANA at 7 8 9 10 14 15: 120 a.u.
2'F-ANA at 1 2 3 5 6 11 12 13 15: 71.5 a.u.

Further values, each from its own experiment
HCM1 DNA-binding domain: Forkhead transcription factor HCM1, DNA-binding domain (HCM1, Saccharomyces cerevisiae, UniProt P25364, residues 41-213)
Sequence of UniProt P25364 (41-213, looked up): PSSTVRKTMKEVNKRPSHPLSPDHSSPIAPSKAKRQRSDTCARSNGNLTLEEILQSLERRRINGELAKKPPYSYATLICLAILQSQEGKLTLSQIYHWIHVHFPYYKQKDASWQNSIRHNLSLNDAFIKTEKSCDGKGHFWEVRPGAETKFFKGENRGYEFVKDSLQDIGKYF
P1: viral docking peptide; KGVKRKLFAEDSS; partner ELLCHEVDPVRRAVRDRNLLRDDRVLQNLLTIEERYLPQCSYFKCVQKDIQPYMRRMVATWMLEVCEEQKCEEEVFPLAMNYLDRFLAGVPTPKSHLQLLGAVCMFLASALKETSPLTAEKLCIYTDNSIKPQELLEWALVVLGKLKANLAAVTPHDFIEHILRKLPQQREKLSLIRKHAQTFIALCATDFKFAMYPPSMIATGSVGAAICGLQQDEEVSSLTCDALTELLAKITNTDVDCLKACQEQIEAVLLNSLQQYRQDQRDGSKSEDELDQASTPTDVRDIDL
GACAATA
relative binding free energy (HCM1 DNA-binding domain; SELEX-seq; double-stranded DNA, one strand shown, in vitro; not given, 7-bp core, flanks averaged; reference: best-binding core, lower = stronger binding): 2.19 ddG/RT

P1 A9C
normalised enrichment score (CCND2, cyclin fold, Cln2 fusion (human); yeast growth competition, sequencing; yeast; weak parent motif; reference: not given, higher = stronger binding): 0.0682

CACAATA
relative binding free energy (HCM1 DNA-binding domain; SELEX-seq; double-stranded DNA, one strand shown, in vitro; not given, 7-bp core, flanks averaged; reference: best-binding core, lower = stronger binding): 1.77 ddG/RT

Some of these lines once more (set 1):
AGCGTCGG: -0.177
ACCTGTGC: -0.0183
